Measurements of several laboratories.
“And” joins repeats or separate records; there may be more than shown. ± marks the error that the study gave.

SMILES = CCNS(=O)(=O)c1ccc(COc2ccc3nc4ccc(=O)cc-4oc3c2)cc1; target = human DDR1 L96F/A98T; test system = HEK293; setting = concentration not given, 4 h, added: collagen I 30 µg/mL; measurement = DDR1 phosphorylation; result = decreased
SMILES = C[C@@H](O)[C@H](NC(=O)[C@H](CO)NC(=O)[C@H](CO)NC(=O)[C@@H](N)CCCCN)C(=O)N[C@@H](CCCNC(=N)N)C(=O)NCC(=O)N[C@@H](CCCNC(=N)N)C(=O)N[C@@H](CCCCN)C(=O)N[C@@H](CO)C(=O)N[C@@H](CO)C(=O)N[C@@H](CCCNC(=N)N)C(=O)N[C@@H](CCCNC(=N)N)C(=O)N[C@@H](CCCCN)C(=O)N[C@@H](CCCCN)C(=O)O; target = MRGPRX2 human; test = degranulation, agonist, refers to: β-hexosaminidase; test system = LAD2; scale = relative to: total; measurement = maximal release; result = ~40%
SMILES = CCN(CC)c1ccc(/C=C/C(=O)C(c2ccccc2)c2ccccc2)cc1; target = TNF-alpha (mouse); test = ELISA; test system = RAW264.7; setting = 10 µM, 2 h pretreatment, added: LPS 0.5 µg/mL for 22 h; scale = relative to: LPS alone; measurement = inhibition; result = 89%
SMILES = O=c1c2ccccc2oc2cc(OCc3cn(Cc4ccc(Br)cc4)nn3)cc(O)c12; target = Bax (human); test = western blot; test system = A549; setting = 17 and 34 µM, 12 h; measurement = protein level; result = increased
SMILES = Cc1ccc(C(C)C)cc1.[C-]#[O+].[C-]#[O+].[C-]#[O+].[Cl-].[Cl-].[Cl-].[Re+].[Ru+2].c1cnc(-c2ncccn2)nc1; target = calf thymus DNA; test = ethidium bromide displacement; setting = DNA 120 µM, 50% quenching, added: ethidium bromide 8 µM; measurement = apparent binding constant; result = 2e+06 M⁻¹
SMILES = COc1ccc2c(c1)c1c(C)c3cnccc3c(C)c1n2CCCN1CCN(C)CC1; target = MYC promoter G-quadruplex DNA; test = CD thermal melt; scale = relative to: G-quadruplex without compound; measurement = thermal stabilisation (ΔTm); result = ~30 °C
SMILES = Nc1nc2ccc(Cc3ccccc3)cc2s1; target = MeAIB/glutamine transporter, rat; test = MeAIB uptake; test system = hippocampal neurons, rat; setting = 20 µM, added: [14C]MeAIB 23.4 µM; measurement = inhibition; result = > 90%
SMILES = CCCCOc1nc(N)c2[nH]c(=O)n(CCCN(CCCN3CCOCC3)Cc3cccc(CC(=O)OC)c3)c2n1; target = other human TLRs; test system = human cells; setting = up to 10 µM; measurement = activity; result = inactive
SMILES = OB(O)c1sccc1/C=N/OCc1ccccc1; target = human pancreatic chymotrypsin; test = enzyme activity, inhibitor; setting = 100 µM; measurement = inhibition; result = inactive
SMILES = Cc1cc(C)nc(NC(=S)N2CCN(Cc3ccc(C(F)(F)F)cc3)CC2)c1; target = PHGDH human C234S; scale = relative to: C234S over wild type; measurement = potency loss fold; result = ~3 fold
SMILES = O=C(/C=C/c1ccccc1)OCCCC[P+](c1ccccc1)(c1ccccc1)c1ccccc1; target = superoxide dismutase, rat liver mitochondria; setting = 10 µM, 15 and 30 min; measurement = SOD activity; result = no effect
SMILES = CC(=O)[C@@]1(O)CC[C@H]2[C@@H]3CCC4=CC(=O)CC[C@]4(C)[C@H]3CC[C@@]21C; target = GPR126 N terminus to ECL1 S1; test = conformational change; measurement = BRET signal; result = no effect
SMILES = Nc1nc2c(CN[C@H](CO)CCP(=O)(O)O)c[nH]c2c(=O)[nH]1; target = HGXPRT Plasmodium falciparum; test = inhibitor; scale = relative to: Ki T. cruzi HGXPRT over Ki P. falciparum HGXPRT; measurement = selectivity ratio; result = 1200 fold
SMILES = COC[C@@H](C)N[C@H]1CC[C@H](Nc2cc(-c3cccc(NCC4(C#N)CCOCC4)n3)c(Cl)cn2)CC1; target = CDK9, human; test = inhibitor, immunoblot, refers to: MCL-1; test system = MIA PaCa-2; setting = concentration not given, 6 h; measurement = protein level; result = decreased
SMILES = Cc1sc2ncn(CC(=O)N3CCCC3)c(=O)c2c1-c1cccc(Br)c1; target = NMDA receptor, mouse; test = single-channel current, outside-out patch; test system = cortical neurons; setting = concentration not given, added: Ca2+ 0.5 mM; measurement = amplitude 2 area; result = 16%
SMILES = N=C(N)NCCC[C@H](N)C(=O)N1CCC[C@H]1C(=O)N[C@@H](CCCCN)C(=O)N1CCC[C@H]1C(=O)N[C@@H](CCC(N)=O)C(=O)N[C@@H](CCC(N)=O)C(=O)N[C@@H](Cc1ccccc1)C(=O)N[C@@H](Cc1ccccc1)C(=O)NCC(=O)O; target = MRGPRX2, human; test = Ca2+ mobilization, agonist, Fura-2; test system = LAD2 IgE-sensitized; setting = 37 °C; measurement = EC50; result = 11000 nM
SMILES = CCc1nc(-c2ccc(-c3ccc(CCC(N)(CO)COP(=O)(O)O)cc3)cc2)co1 (centres unmarked); target = human S1P1 receptor; test = flow cytometry; test system = CHO expressing human S1P1; setting = 100 nM, 1 h; measurement = receptor internalization; result = 53%
SMILES = Nc1nc2ccc(C(F)(F)F)cc2s1; target = MeAIB/glutamine transporter, rat; test = MeAIB uptake; test system = hippocampal neurons, rat; setting = 20 µM, added: [14C]MeAIB 23.4 µM; measurement = inhibition; result = > 90%
SMILES = Cc1cc(N)c2cc(NC(=O)C(=O)Nc3ccc4nc(C)cc(N)c4c3)ccc2n1; target = unfractionated heparin; test = heparin neutralization, factor Xa chromogenic; setting = added: heparin 0.2 IU/mL, antithrombin III; measurement = IC50; result = 1200 ± 40 nM
SMILES = O=C([O-])CN1CCN(CC(=O)[O-])CCN(C(CCC(=O)NC(Cc2c[nH]c3ccc(O)cc23)C(=O)NCCc2c[nH]c3ccc(O)cc23)C(=O)O)CCN(CC(=O)[O-])CC1.[Gd+3] (centres unmarked); target = myeloperoxidase; test = MR imaging; test system = mice CFA inflammation; setting = 60 min; scale = relative to: MPO-Gd; measurement = activation ratio; result = ~2 fold
SMILES = Cc1cccc(C)c1NC(=O)[C@@H]1CCCN1Cc1ccccc1; target = Nav1.4 sodium channel; test = vaseline gap voltage clamp; test system = Pelophylax lessonae skeletal muscle; setting = 30 µM; measurement = shift of steady-state inactivation; result = 5.7 ± 0.8 mV
SMILES = Nc1nc2ccc(Oc3ccccc3)cc2s1; target = MeAIB/glutamine transporter, rat; test = MeAIB uptake; test system = hippocampal neurons, rat; setting = 20 µM, added: [14C]MeAIB 23.4 µM; measurement = inhibition; result = > 90%
SMILES = CC[C@H](C)[C@H](NC(=O)[C@@H]1CCCN1C(=O)[C@H](CCCCN)NC(=O)[C@H](CO)NC(=O)[C@H](CO)NC(=O)[C@H](Cc1ccc(O)cc1)NC(=O)[C@H](CO)NC(=O)[C@H](C)NC(=O)[C@H](CO)NC(=O)[C@@H](N)Cc1ccccc1)C(=O)N[C@@H](CCC(N)=O)C(=O)N[C@H](C(=O)N[C@@H](CCC(N)=O)C(=O)N[C@H](C(=O)N[C@@H](CO)C(=O)N[C@@H](CC(N)=O)C(=O)NCC(=O)N[C@@H](CCSC)C(=O)N[C@@H](CC(=O)O)C(=O)N[C@@H](CC(N)=O)C(=O)N[C@@H](C)C(=O)N[C@@H](CO)C(=O)N[C@@H](C)C(=O)N1CCC[C@H]1C(=O)N[C@H](C(=O)O)C(C)C)C(C)C)[C@@H](C)O; target = PCY1 peptide cyclase, Saponaria vaccaria; test = substrate, LC-MS; setting = 200 µM, pH 8.5, 30 °C, added: PCY1 3.6 µM; measurement = time to complete macrocyclization; result = > 3 h
SMILES = [64Cu+2].c1cnc(CNCc2ccc(CN3CCCN4CCNCCCN(CC4)CC3)cc2)nc1; target = CXCR4 (human); test system = NOD/SCID mice, U87 xenografts, liver; setting = dose not given, 90 min post-injection, added: 25 mg/kg AMD3465; scale = relative to: non-blocked; measurement = uptake decrease on blocking; result = ~50% and 41%
SMILES = COC(=O)c1cnc(-c2cnccn2)cc1C(=O)OC.COC(=O)c1cnc(-c2cnccn2)cc1C(=O)OC.F[P-](F)(F)(F)(F)F.[Ag+]; target = calf thymus DNA; test = ethidium bromide displacement; measurement = binding constant; result = 1370 M⁻¹
SMILES = CCN(CC)CCCC(C)NCc1nn2c(-c3ccccc3)nnc2s1 (centres unmarked); target = c-Myc (human); test = western blot; test system = MV4-11; setting = concentration not given, 6 h; measurement = protein level; result = decreased
SMILES = CCN(CC)CCCC(C)Nc1cc[n+]([Ru-]([Cl])[Cl])c2cc(Cl)ccc12.Cc1ccc(C(C)C)cc1 (centres unmarked); target = calf thymus DNA; test = thermal denaturation; setting = 0.5 equivalents per DNA, 1 h, pH 7.39, 25 °C, 25 mM NaClO4; measurement = delta Tm; result = 5.5 °C
SMILES = CC[C@H](C)[C@@H]1NC(=O)[C@H](Cc2ccc(O)cc2)NC(=O)[C@@H](N)CSSC[C@@H](C(=O)N2CCC[C@H]2C(=O)N2CCC[C@H]2C(=O)NCC(N)=O)NC(=O)[C@H](CC(N)=O)NC(=O)[C@H](CCC(N)=O)NC1=O; target = vasopressin V1a receptor, Callithrix jacchus; test = membrane hyperpolarization, FLIPR membrane potential; test system = CHO transfected with receptor; measurement = IC50; result = 0.0683 nM
SMILES = CCOc1ccc(-c2nc3cc(-c4nc5cc(N6CCN(C)CC6)ccc5[nH]4)ccc3[nH]2)cc1; target = HIV-1 nucleocapsid protein-RNA NC•SL2 complex; test = ESI-FTMS; setting = 0.35 to 17.5 µM, added to preformed complex; measurement = NC-RNA complex dissociation; result = no effect
